Experimental data collected from several papers.
Parts stem from different laboratories: compare values within a part only. “And” joins repeats or separate records; there may be more than shown.
Chain of UniProt O14965 (whole entry, looked up): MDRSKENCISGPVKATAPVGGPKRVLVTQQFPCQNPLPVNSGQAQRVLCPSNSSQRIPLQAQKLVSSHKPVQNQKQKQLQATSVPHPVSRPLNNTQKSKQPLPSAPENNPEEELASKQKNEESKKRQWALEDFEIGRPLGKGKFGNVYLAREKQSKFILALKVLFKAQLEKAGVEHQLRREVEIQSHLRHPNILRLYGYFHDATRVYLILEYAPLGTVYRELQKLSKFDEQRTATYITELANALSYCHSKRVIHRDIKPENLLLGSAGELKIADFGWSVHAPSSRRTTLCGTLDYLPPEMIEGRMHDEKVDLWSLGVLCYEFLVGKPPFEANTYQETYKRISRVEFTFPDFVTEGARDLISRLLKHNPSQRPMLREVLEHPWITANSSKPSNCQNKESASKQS
Chain of UniProt P10721 (whole entry, unmodified, looked up): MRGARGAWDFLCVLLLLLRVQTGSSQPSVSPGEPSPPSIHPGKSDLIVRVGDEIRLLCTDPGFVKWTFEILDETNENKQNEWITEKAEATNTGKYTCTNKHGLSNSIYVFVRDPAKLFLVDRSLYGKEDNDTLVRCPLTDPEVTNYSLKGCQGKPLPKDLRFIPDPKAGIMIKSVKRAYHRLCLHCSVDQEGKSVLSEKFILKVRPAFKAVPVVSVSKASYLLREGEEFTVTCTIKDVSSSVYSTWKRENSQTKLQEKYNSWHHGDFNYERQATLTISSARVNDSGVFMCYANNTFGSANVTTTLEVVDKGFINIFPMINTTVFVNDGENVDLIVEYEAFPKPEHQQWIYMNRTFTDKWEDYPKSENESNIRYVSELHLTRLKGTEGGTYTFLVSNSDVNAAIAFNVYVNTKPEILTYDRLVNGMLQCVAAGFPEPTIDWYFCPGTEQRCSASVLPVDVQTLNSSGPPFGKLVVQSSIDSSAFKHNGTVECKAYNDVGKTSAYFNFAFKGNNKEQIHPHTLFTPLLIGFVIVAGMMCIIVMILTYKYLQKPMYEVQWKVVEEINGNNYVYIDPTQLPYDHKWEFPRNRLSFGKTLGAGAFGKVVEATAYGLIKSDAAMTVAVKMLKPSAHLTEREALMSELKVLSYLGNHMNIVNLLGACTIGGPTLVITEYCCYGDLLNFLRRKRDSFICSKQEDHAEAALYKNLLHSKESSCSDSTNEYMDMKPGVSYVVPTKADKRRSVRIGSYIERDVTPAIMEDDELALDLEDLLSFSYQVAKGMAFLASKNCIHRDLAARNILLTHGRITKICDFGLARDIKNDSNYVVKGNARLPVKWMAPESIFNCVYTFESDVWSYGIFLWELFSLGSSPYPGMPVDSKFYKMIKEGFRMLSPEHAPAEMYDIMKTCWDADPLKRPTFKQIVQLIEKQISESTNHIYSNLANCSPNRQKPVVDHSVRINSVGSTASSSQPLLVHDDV
Chain of UniProt Q13705 (whole entry, looked up): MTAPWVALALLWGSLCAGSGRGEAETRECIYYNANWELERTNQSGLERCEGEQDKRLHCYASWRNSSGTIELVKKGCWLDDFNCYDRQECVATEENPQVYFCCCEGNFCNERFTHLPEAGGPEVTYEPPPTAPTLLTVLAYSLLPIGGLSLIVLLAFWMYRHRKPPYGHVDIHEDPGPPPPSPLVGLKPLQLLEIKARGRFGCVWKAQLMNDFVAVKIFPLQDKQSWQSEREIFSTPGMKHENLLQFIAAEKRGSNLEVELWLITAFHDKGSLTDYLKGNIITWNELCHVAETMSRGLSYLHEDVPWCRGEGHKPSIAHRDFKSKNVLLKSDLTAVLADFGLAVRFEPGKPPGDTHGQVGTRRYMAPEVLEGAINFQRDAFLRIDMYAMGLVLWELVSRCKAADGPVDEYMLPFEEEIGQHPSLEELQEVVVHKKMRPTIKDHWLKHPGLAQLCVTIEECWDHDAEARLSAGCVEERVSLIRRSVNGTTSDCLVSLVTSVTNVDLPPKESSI
Chain of UniProt O43293 (whole entry, looked up): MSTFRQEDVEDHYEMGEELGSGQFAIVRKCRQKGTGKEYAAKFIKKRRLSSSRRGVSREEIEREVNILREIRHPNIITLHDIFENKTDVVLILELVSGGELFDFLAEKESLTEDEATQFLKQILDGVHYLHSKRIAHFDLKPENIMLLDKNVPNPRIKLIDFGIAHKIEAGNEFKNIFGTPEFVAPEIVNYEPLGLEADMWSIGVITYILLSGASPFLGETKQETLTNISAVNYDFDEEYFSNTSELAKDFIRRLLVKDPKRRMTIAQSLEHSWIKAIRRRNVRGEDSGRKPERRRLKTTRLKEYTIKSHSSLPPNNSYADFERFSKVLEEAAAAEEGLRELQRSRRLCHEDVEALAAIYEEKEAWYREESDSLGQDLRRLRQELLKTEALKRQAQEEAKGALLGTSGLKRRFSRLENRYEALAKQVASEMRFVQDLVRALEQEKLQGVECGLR
Chain of UniProt O94921 (whole entry, looked up): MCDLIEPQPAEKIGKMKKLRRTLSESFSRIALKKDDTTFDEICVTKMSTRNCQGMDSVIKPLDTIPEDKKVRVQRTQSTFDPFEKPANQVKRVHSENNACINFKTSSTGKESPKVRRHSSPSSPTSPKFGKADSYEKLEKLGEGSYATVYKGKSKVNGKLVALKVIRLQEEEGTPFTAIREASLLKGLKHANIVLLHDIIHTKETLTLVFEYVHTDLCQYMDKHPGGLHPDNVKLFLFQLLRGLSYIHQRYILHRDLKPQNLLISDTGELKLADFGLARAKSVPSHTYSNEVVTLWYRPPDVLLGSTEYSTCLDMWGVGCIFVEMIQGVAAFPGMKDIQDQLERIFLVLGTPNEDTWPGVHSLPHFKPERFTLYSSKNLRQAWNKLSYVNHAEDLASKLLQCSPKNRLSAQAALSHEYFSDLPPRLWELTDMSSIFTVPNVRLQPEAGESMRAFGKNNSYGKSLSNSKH
Chain of UniProt Q13163 (whole entry, looked up): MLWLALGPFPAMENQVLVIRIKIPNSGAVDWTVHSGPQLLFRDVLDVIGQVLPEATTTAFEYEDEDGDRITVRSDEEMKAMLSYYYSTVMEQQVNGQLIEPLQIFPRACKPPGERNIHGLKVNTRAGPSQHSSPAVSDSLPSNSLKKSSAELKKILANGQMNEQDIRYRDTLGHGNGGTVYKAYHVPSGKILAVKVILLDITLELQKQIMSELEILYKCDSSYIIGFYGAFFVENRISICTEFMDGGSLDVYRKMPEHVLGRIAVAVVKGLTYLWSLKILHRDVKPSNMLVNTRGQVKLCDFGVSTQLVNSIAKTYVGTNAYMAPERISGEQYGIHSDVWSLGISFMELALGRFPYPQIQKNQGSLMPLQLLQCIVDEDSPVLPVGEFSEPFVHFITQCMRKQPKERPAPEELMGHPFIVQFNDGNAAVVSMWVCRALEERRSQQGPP

Study 1
SMILES: COc1ccc2[nH]c3c4[nH]c5ccc(OC)cc5c4c4c(c3c2c1)C(=O)NC4=O
Read-out: binding
Concentration: 1 µM
The remaining binding was 0.7% (Dual specificity mitogen-activated protein kinase kinase 5 (MAP2K5, Homo sapiens, UniProt Q13163); competition with immobilised ligand).
SRSF protein kinase 3 (SRPK3, Homo sapiens, UniProt Q9UPE1) — remaining binding: 100%.
The remaining binding was 79% (Dual specificity tyrosine-phosphorylation-regulated kinase 1B (DYRK1B, Homo sapiens, UniProt Q9Y463)).

Study 2
SMILES: CC(C)n1cnc(-c2ccc(F)cc2)c1-c1ncc(C(=O)Nc2ccc(N3CCN(C)CC3)cc2)[nH]1
Method: phase 2a trial
Species: idiopathic pulmonary fibrosis patients
For 30 mg once daily, adverse event grade 3: “patients with constipation” read 0%.
dose not given, adverse event grade 5, all dose arms pooled — “patients with constipation”: 0%.
For dose not given, adverse event grade 3, all dose arms pooled: “patients with constipation” read 0%.

Study 3
Method: PRP chromatography
Setting: linear fit, 1 mL
The logD 1,9-decadiene/water of `CC(C)C[C@@H]1NC(=O)[C@H](C)NC(=O)[C@H](CCC(=O)N2CCCC2)NC(=O)[C@H](CC(C)C)NC(=O)[C@H](C(C)C)NC(=O)[C@H](CC(C)C)NC(=O)[C@@H](CC(C)C)NC1=O` is reported as 0.662 log units.
With `CC(C)C[C@@H]1NC(=O)[C@H](C)NC(=O)[C@H](Cc2cscn2)NC(=O)[C@H](C)NC(=O)[C@H](C(C)C)NC(=O)[C@H](CC(C)C)NC(=O)[C@@H](CC(C)C)NC1=O` the logD 1,9-decadiene/water was -2.98 log units.
The logD 1,9-decadiene/water of `CC(C)C[C@@H]1NC(=O)[C@H](CC(C)C)NC(=O)[C@@H](CC(C)C)NC(=O)[C@H](C(C)C)NC(=O)[C@H](C(C)C)NC(=O)[C@H](C)NC(=O)[C@H](C)NC1=O` is reported as -1.21 log units.

Study 4
SMILES: Cc1ccc(O)cc1Nc1ccnc2cc(-c3ccccn3)ccc12
Target: Receptor-interacting serine/threonine-protein kinase 3 (RIPK3, Homo sapiens, UniProt Q9Y572)
Chain of UniProt Q9Y572 (whole entry, looked up): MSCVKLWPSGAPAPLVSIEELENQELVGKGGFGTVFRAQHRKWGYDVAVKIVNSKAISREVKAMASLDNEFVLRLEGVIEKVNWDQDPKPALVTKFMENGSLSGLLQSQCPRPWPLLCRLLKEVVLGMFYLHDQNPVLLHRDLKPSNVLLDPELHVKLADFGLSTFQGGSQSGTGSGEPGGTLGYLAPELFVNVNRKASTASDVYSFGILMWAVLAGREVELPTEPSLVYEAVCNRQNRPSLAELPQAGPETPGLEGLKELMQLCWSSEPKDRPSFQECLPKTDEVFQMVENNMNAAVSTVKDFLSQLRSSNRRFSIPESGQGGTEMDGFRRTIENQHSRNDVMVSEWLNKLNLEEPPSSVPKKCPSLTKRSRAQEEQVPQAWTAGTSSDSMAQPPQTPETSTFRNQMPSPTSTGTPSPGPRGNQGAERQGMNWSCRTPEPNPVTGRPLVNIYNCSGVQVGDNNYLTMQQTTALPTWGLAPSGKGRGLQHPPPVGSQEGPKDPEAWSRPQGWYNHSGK
Read-out: kinase activity
Action: inhibitor
Method: ADP-Glo
Time: 1 h
The inhibition was 58.8% (6.25 nM).
The inhibition was 91.5% (100 nM).
For 12.5 nM: inhibition read 74%.
For 200 nM: inhibition read 98.2%.

Study 5
SMILES: CC(=O)N[C@@H](Cc1c[nH]c2ccccc12)C(=O)N[C@@H](CCC(=O)C=[N+]=[N-])C(=O)OC(C)C
Dose: dose not given
Reference: vehicle
The “log2 fold change” was -0.0639 (refers to: N-acetylneuraminate; mouse, EL4 tumour-bearing, EL4 tumour).
It gave -1.4 for “log2 fold change” (refers to: indolelactate; mouse, EL4 tumour-bearing, EL4 tumour).
For refers to: dimethylarginine (ADMA + SDMA); Mus musculus, EL4 tumour: “log2 fold change” read 0.197.
The “log2 fold change” was -1.14 (refers to: 4-hydroxyglutamate; mouse, EL4 tumour-bearing, EL4 tumour).
refers to: 2'-deoxyadenosine 3'-monophosphate; mouse, EL4 tumour, tumour — “log2 fold change”: 1.14.

Study 6
Species: human
Medium: microsomes or S9
Concentration: 2 µM
Time: 0.5 h
For `CN(c1ccccc1)c1ncnc2c([C@H]3O[C@@H](COCc4ccccc4)[C@H](OCc4ccccc4)[C@@H]3OCc3ccccc3)cnn12`, the remaining compound was 0.095%.
`CC(C)(C)OC(=O)N1CCN(Cc2nc(-c3ccco3)n[nH]2)CC1` has a remaining compound of 85%.
`Cc1c(C(=O)NCC(C)c2ccccc2)oc2ccc3c(c12)C=CC1(CCCC1)O3` (centres unmarked) gave a remaining compound of 35.5%.

Study 7
Compound: NS(=O)(=O)c1cc(NC(=O)C2(c3ccccc3Cl)CC2)ccc1Oc1cccc(Cl)c1
Concentration: 1 µM
It gave 64% for remaining binding (Casein kinase I isoform epsilon (CSNK1E, Homo sapiens, UniProt P49674); cell-free assay, competition with immobilised ligand).
It gave 96% for remaining binding (Discoidin domain-containing receptor 2 (DDR2, Homo sapiens, UniProt Q16832); cell-free assay, competition with immobilised ligand).
The remaining binding was 89% (Phosphatidylinositol 3-kinase catalytic subunit type 3 (PIK3C3, Homo sapiens, UniProt Q8NEB9); cell-free assay, competition with immobilised ligand).
Receptor-interacting serine/threonine-protein kinase 4 (RIPK4, Homo sapiens, UniProt P57078); cell-free assay, competition with immobilised ligand — remaining binding: 100%.
The remaining binding was 71% (Serine/threonine-protein kinase SIK1 (SIK1, Homo sapiens, UniProt P57059); competition binding).
For Wee1-like protein kinase 2 (WEE2, Homo sapiens, UniProt P0C1S8); cell-free assay, competition with immobilised ligand: remaining binding read 74%.
The remaining binding was 100% (Macrophage colony-stimulating factor 1 receptor, autoinhibited (CSF1R, Homo sapiens, UniProt P07333); cell-free assay, competition with immobilised ligand).
For STE20/SPS1-related proline-alanine-rich protein kinase (STK39, Homo sapiens, UniProt Q9UEW8); cell-free assay, competition with immobilised ligand: remaining binding read 100%.
For Death-associated protein kinase 3 (DAPK3, Homo sapiens, UniProt O43293); cell-free assay, competition with immobilised ligand: remaining binding read 100%.
For Activin receptor type-2B (ACVR2B, Homo sapiens, UniProt Q13705); binding, competition with immobilised ligand: remaining binding read 90%.
Dual serine/threonine and tyrosine protein kinase (DSTYK, Homo sapiens, UniProt Q6XUX3); cell-free assay, competition with immobilised ligand — remaining binding: 93%.
The remaining binding was 100% (Ephrin type-A receptor 1 (EPHA1, Homo sapiens, UniProt P21709); cell-free assay, competition with immobilised ligand).
The remaining binding was 71% (Proto-oncogene tyrosine-protein kinase receptor Ret (RET, Homo sapiens, UniProt P07949, M918T); cell-free assay, competition with immobilised ligand).
Interferon-induced, double-stranded RNA-activated protein kinase (EIF2AK2, Homo sapiens, UniProt P19525); cell-free assay, competition with immobilised ligand — remaining binding: 100%.
For Calcium/calmodulin-dependent protein kinase kinase 2 (CAMKK2, Homo sapiens, UniProt Q96RR4); cell-free assay, competition with immobilised ligand: remaining binding read 89%.
The remaining binding was 100% (Aurora kinase A (AURKA, Homo sapiens, UniProt O14965); cell-free assay, competition with immobilised ligand).
For Myosin-IIIb (MYO3B, Homo sapiens, UniProt Q8WXR4); binding, competition with immobilised ligand: remaining binding read 29%.
The remaining binding was 69% (Tyrosine-protein kinase ABL1, phosphorylated (ABL1, Homo sapiens, UniProt P00519, Y253F); cell-free assay, competition with immobilised ligand).
For Serine/threonine-protein kinase VRK2 (VRK2, Homo sapiens, UniProt Q86Y07); cell-free assay, competition with immobilised ligand: remaining binding read 100%.
For Tyrosine-protein kinase Lyn (LYN, Homo sapiens, UniProt P07948); cell-free assay, competition with immobilised ligand: remaining binding read 83%.
For Serine/threonine-protein kinase Nek4 (NEK4, Homo sapiens, UniProt P51957); cell-free assay, competition with immobilised ligand: remaining binding read 100%.
It gave 63% for remaining binding (Cyclin-dependent kinase 14 (CDK14, Homo sapiens, UniProt O94921); cell-free assay, competition with immobilised ligand).
The remaining binding was 80% (Tyrosine-protein kinase ABL2 (ABL2, Homo sapiens, UniProt P42684); cell-free assay, competition with immobilised ligand).
For Mast/stem cell growth factor receptor Kit (KIT, Homo sapiens, UniProt P10721, D816H); cell-free assay, competition with immobilised ligand: remaining binding read 86%.
For Receptor-type tyrosine-protein kinase FLT3 (FLT3, Homo sapiens, UniProt P36888); cell-free assay, competition with immobilised ligand: remaining binding read 100%.

Single results of other studies
CDK2 with cyclin E: Cyclin-dependent kinase 2, with cyclin E (CDK2, Homo sapiens, UniProt P24941)
`Cc1ccc(NC2=CC(=O)c3sc(C)nc3C2=O)cc1` has a remaining signal of 72.9% (CDK2 with cyclin E; cell-free assay; 0.5 µM).
With `O=C1CCC(N2Cc3cc(C4CCN(Cc5ccccc5)CC4)ccc3C2=O)C(=O)N1` (centres unmarked) the CL was 49.7 mL/min/kg and 54.7 mL/min/kg (Sprague Dawley rat, male, plasma; intravenous, 1.0 mg/kg).
The remaining signal of `O=C1Cc2c([nH]c3ccc([N+](=O)[O-])cc23)-c2ccccc2N1` is reported as 19.6% (CDK2 with cyclin E; cell-free assay; 0.5 µM).
The viability of `CO/N=C(\C(=O)N[C@@H]1C(=O)N2C(C(=O)O)=C(C[N+]3(C)CCCC3)CS[C@H]12)c1csc(N)n1` is reported as 103% (A-375; 100 µM, 60 h).

For quick reference, copied from above (study 7):
The remaining binding was 100% (Aurora kinase A (AURKA, Homo sapiens, UniProt O14965); cell-free assay, competition with immobilised ligand).
For Myosin-IIIb (MYO3B, Homo sapiens, UniProt Q8WXR4); binding, competition with immobilised ligand: remaining binding read 29%.
The remaining binding was 69% (Tyrosine-protein kinase ABL1, phosphorylated (ABL1, Homo sapiens, UniProt P00519, Y253F); cell-free assay, competition with immobilised ligand).
